Measurements from different studies.

| SMILES | test | test system | conditions | how to read | endpoint | value |
| --- | --- | --- | --- | --- | --- | --- |
| C=CC(=O)Nc1cc(Nc2nccc(-c3cn(C)c4ccccc34)n2)c(OC)cc1N(C)CCN(C)C | item: treatment-related grade ≥3 Fatigue | EGFR-mutant MET-altered NSCLC | oral, dose not given, all |  | patients with adverse events | 3% |
| COc1cc(Nc2ncc3c(n2)-c2ccc(Cl)cc2C(c2c(F)cccc2OC)=NC3)ccc1C(=O)O | item: Fatigue, grade 2 | cancer patients, phase 1/2 | oral, dose not given, added: pembrolizumab |  | patients with adverse event | 29% |
| CNC(=O)c1cc(Oc2ccc(NC(=O)Nc3cc(C(C)(C)C)nn3-c3ccc4ncccc4c3)c(F)c2)ccn1 |  | patients | oral, dose not given, cycles 1 and 2, Low Cmax subgroup |  | patients with grade 1 musculoskeletal disorders | 24% |
| FC(F)(F)c1ccc(CNc2ccc(Cc3c[nH]c4ncc(Cl)cc34)cn2)cn1 | item: aspartate aminotransferase increased | advanced solid tumour patients | oral, 1000 mg/day, all grades, all cohorts |  | patients with treatment-related adverse event | 12% |
| O=C(Nc1nc2cccc(-c3ccc(CN4CCS(=O)(=O)CC4)cc3)n2n1)C1CC1 |  | rheumatoid arthritis patients | oral, 200 mg once daily, 4 weeks, regardless of relatedness |  | patients with gastritis | 0% |
| CCOc1c([C@H](C)n2nc(C)c3c(N)ncnc32)cc(Cl)c(F)c1[C@@H]1CNC(=O)C1 | item: QTcF change ≤30 ms | previously treated B-cell malignancy | oral, 10 mg once daily, overall population | reference: baseline | patients | 100% |
| C[C@@H](Nc1cc(F)cc(F)c1)c1cc(C(=O)N(C)C)cc2c(=O)cc(N3CCOCC3)oc12 | CTCAE v4, item: lung infection | patients with advanced solid tumours | oral, dose not given, phase I dose expansion |  | patients with related SAE | 0% |
| CNC(=O)c1ccc(-c2cnc3ncc(Cc4ccc5ncccc5c4)n3n2)cc1F | item: Diarrhea | other cancer patients | oral, 600 mg twice daily, expansion cohort, grade 3-4 |  | patients with adverse event | 0% |
| Cc1cc(NC2CCN(C(=O)OC3CCN(C(=O)/C=C/CN(C)C)C3)CC2)n2ncc(C(C)C)c2n1 (stereo not drawn) | Phase I dose escalation CTCAE v4.0, item: Constipation | patients with advanced solid tumours | dose not given, all dose schedules any grade |  | patients with adverse event | 11% |
